Assay results pooled from the literature.
Parts stem from different laboratories: compare values within a part only.

Series 1
Target: Dual specificity tyrosine-phosphorylation-regulated kinase 1B (DYRK1B, Homo sapiens, UniProt Q9Y463)
Read-out: enzyme activity
Action: inhibitor
Technique: radiometric
Tested at: 0.5 µM
Structure (SMILES) | remaining activity
N#CC(=C(N)Sc1ccc(N)cc1)c1ccccc1C(F)(F)F | 99.6%
O=C1Cc2c([nH]c3ccc([N+](=O)[O-])cc23)-c2ccccc2N1 | 87.5%
Cc1cc(Nc2nc(-c3ccccc3)nc3ccccc23)n[nH]1 | 90.8%
CCc1[nH]c(-c2ccc(OC)cc2)nc1-c1ccncc1 | 106%
CCCC(=O)Oc1ccc2[nH]c(C(=O)c3cc4ccccc4[nH]3)cc2c1 | 103%
CC(C)(C)c1cc(C=C(C#N)C#N)cc(Br)c1O | 103%
Fc1ccc(-c2nc3n(c2-c2ccncc2)CCS3)cc1 | 104%
O=C1NC(=O)c2c1c1c3ccccc3n3c1c1c2c2ccccc2n1[C@H]1CC[C@@H]3O1 | 3.15%
CC[n+]1c(/C=C/N(C)c2ccccc2)n(-c2ccccc2)c2ccc(-c3nc4ccccc4s3)cc21 | 101%
NC(=O)c1ccc(N(C(N)=O)c2c(F)cccc2F)nc1-c1ccc(F)cc1F | 97.1%
CC(=O)c1ccc(N2CCOCC2)cc1O | 99.9%
Cc1cncc2cccc(S(=O)(=O)N3CCCN(C(=O)CN)C[C@@H]3C)c12 | 101%
CC(C)(C)n1nc(Cc2cccc3ccccc23)c2c(N)ncnc21 | 98.6%
Oc1ccc(Nc2nc(-c3ccc(Cl)cc3)cs2)cc1 | 106%
COc1ccc(S(=O)(=O)N(CCO)c2ccccc2CN(C)CC=Cc2ccc(Cl)cc2)cc1 | 104%
Nc1nccc(-c2c(-c3ccc(F)cc3)ncn2C2CCNCC2)n1 | 100%
Nc1ncnc2c1cnn2-c1ccccc1 | 93%
O=C1NC(=O)C(c2c[nH]c3ccccc23)=C1c1c[nH]c2ccccc12 | 86.8%
Nc1nc(Nc2ccc(S(N)(=O)=O)cc2)nn1C(=O)c1c(F)cccc1F | 87.6%
O=S(=O)(NCCNC/C=C/c1ccc(Br)cc1)c1cccc2cnccc12 | 95.3%
Cc1ccc(NC2=CC(=O)c3sc(C)nc3C2=O)cc1 | 94.6%
CSc1nc(-c2ccnc(N[C@@H](C)c3ccccc3)c2)c(-c2ccc(F)cc2)[nH]1 (racemic) | 84.6%
COc1cc(Nc2c(C#N)cnc3cc(OCCCN4CCN(C)CC4)c(OC)cc23)c(Cl)cc1Cl | 97%

Series 2
Cell line: HaCaT
Tested at: 100 µM
Time: 18 h
SMILES | viability [%]
C[C@@H]1[C@H](O)[C@@H](C)/C=C/C=C/CC/C=C/C=C/C=C/C=C/[C@H](O[C@H]2O[C@@H](C)[C@H](O)[C@@H](N)[C@H]2O)C[C@@H]2O[C@](O)(C[C@@H](O)[C@H](O)CC[C@@H](O)C[C@@H](O)C[C@@H](O)CC(=O)O[C@H]1C)C[C@H](O)[C@H]2C(=O)O | 96
C=CC[C@]1(O)CC[C@H]2[C@@H]3CCC4=CC(=O)CCC4=C3C=C[C@@]21C | 54.5
CCOP(=S)(OCC)Oc1cc(C)nc(C(C)C)n1 | 88.7
C[C@H]1CC(=O)C[C@@H]2CC[C@H]3[C@@H]4CC[C@H](O)[C@@]4(C)CC[C@@H]3[C@]21C | 54.9
CC(C)C(Br)C(=O)NC(N)=O (stereo not shown) | 108

Series 3
Cell line: HEK-293T-ACE2-TMPRSS2
Technique: cell count
Tested at: 10 µM
SMILES | viability [%]
O=C(c1noc2ccc(S(=O)(=O)NCc3ccc4c(c3)OCO4)cc12)N1CCOCC1 | 102
COc1ccc(CN2C[C@@H](CO)[C@H](c3nc(C)no3)C2)cc1OC | 112
CC(C)c1nccn1CCCn1cnc(-c2ccccc2)c1-c1cnn(C)c1 | 76
Cc1noc([C@@H]2CN(C(=O)c3ccnn3C)C[C@H]2COCC2CC2)n1 | 96
N#CC(C#N)=C/C=C(/Sc1ncc(C(F)(F)F)cc1Cl)c1ccc(Cl)cc1 | 71
N#C/C(=C\Nc1cc(C(F)(F)F)cc(C(F)(F)F)c1)S(=O)(=O)Cc1ccc(Cl)cc1 | 65
COCCN(Cc1cnn(C)c1)C(=O)c1cc(-c2ccccc2Cl)oc1C | 70
COc1ccc(S(=O)(=O)N2CCC[C@@H]2C(=O)NCCc2csc(C)n2)cc1Cl | 65
Cc1ccc(C2C3=C(COC3=O)Nc3c2c(=O)[nH]c(=O)n3CC(C)C)cc1 (stereo not shown) | 75
Cc1ccc2[nH]c(C(=O)NCc3cccs3)c(NCc3ccc(Cl)cc3)c2c1 | 103
CC(CCc1ccccc1)NC(=O)c1ccc(-c2cc(N3CCOCC3)ncn2)cc1 (stereo not shown) | 106
COc1ccc(F)c(-c2ccccc2OC(C)C(N)=O)c1 (stereo not shown) | 65
CCCCCNC(=O)c1ccc(Oc2nccnc2N2CCC(C)CC2)cc1 | 104
O=C1C(=Cc2cccc(O)c2)CSC/C1=C/c1cccc(O)c1 | 71
CC(=O)Nc1ccc(Cl)c(C(=O)N(C)CCCN2CCCCCC2)c1 | 69
OC(CN1CCc2ccccc2C1)c1cc(F)ccc1F (stereo not shown) | 76
C=C(Cl)COC(=O)c1ccc2c(c1)S(=O)(=O)N=C1CCCCCN12 | 95
FC(F)(F)c1cc(NC(=S)N/N=C/c2ccccn2)cc(C(F)(F)F)c1 | 81
CCNC(=O)[C@H]1O[C@@H](n2cnc3c(N)nc(NCCc4ccc(CCC(=O)O)cc4)nc32)[C@H](O)[C@@H]1O | 76
O=C(OCc1cc(Cl)cc2c1OCOC2)c1ccc2c(c1)S(=O)(=O)N=C1CCCCCN12 | 70
Cc1ccsc1C(=O)Nc1cccc(OC(F)(F)F)c1 | 74
CCn1nc(C)c(CNC(=O)C2CCC(=O)N(CCc3ccccn3)C2)c1C (stereo not shown) | 112
CCCCn1c(N)c(C#N)c2nc3ccccc3nc21 | 67
CCc1cc(C(=O)NCc2cc(C)cc3c(C)c(CC)[nH]c23)n(C)n1 | 78
CCN(CCCNC(=O)c1ccc(Nc2ccnc(-c3ccc(F)cc3)n2)cc1)Cc1ccccc1 | 68

Series 4
Cell line: HEK-293T-ACE2
Technique: Hoechst nuclei count
Tested at: concentration not given
Notes: counter-screen
Relative to: vehicle
SMILES | cell number
CC[C@H](Nc1ncnc2[nH]cnc12)c1nc2cccc(F)c2c(=O)n1-c1ccccc1 | 100%
CO[C@H]1C[C@@H]2CC[C@@H](C)[C@@](O)(O2)C(=O)C(=O)N2CCCC[C@H]2C(=O)O[C@H]([C@H](C)C[C@@H]2CC[C@@H](OCCO)[C@H](OC)C2)CC(=O)[C@H](C)/C=C(\C)[C@@H](O)[C@@H](OC)C(=O)[C@H](C)C[C@H](C)/C=C/C=C/C=C/1C | 106%
Cc1ccc([C@@H]2O[C@H](CO)[C@@H](O)[C@H](O)[C@H]2O)cc1Cc1ccc(-c2ccc(F)cc2)s1 | 99%
Nc1nc2[nH]cc(CCc3ccc(C(=O)N[C@@H](CCC(=O)[O-])C(=O)[O-])cc3)c2c(=O)[nH]1.Nc1nc2[nH]cc(CCc3ccc(C(=O)N[C@@H](CCC(=O)[O-])C(=O)[O-])cc3)c2c(=O)[nH]1.O.O.O.O.O.[Na+].[Na+].[Na+].[Na+] | 87.2%
C/C=C1\NC(=O)[C@H]2CSSCC/C=C/[C@H](CC(=O)N[C@H](C(C)C)C(=O)N2)OC(=O)[C@H](C(C)C)NC1=O | 61.2%
CCC(=O)O[C@@H](O[P@](=O)(CCCCc1ccccc1)CC(=O)N1C[C@H](C2CCCCC2)C[C@H]1C(=O)[O-])C(C)C.[Na+] | 100%
COS(=O)(=O)[O-].C[N+]1(C)CCC(=C(c2ccccc2)c2ccccc2)CC1 | 97.3%
CC1(C)CCC(CN2CCN(c3ccc(C(=O)NS(=O)(=O)c4ccc(NCC5CCOCC5)c([N+](=O)[O-])c4)c(Oc4cnc5[nH]ccc5c4)c3)CC2)=C(c2ccc(Cl)cc2)C1 | 1.31%
CC(C)C[C@H](NC(=O)[C@H](CCc1ccccc1)NC(=O)CN1CCOCC1)C(=O)N[C@@H](Cc1ccccc1)C(=O)N[C@@H](CC(C)C)C(=O)[C@@]1(C)CO1 | 80.6%
Cc1nccn1CC1CCc2c(c3ccccc3n2C)C1=O.Cl (stereo not shown) | 93.5%
CC[C@H](C)[C@H]1O[C@]2(CC[C@@H]1C)C[C@@H]1C[C@@H](C/C=C(\C)[C@@H](O[C@H]3C[C@H](OC)[C@@H](O[C@H]4C[C@H](OC)[C@@H](O)[C@H](C)O4)[C@H](C)O3)[C@@H](C)/C=C/C=C3\CO[C@@H]4[C@H](O)C(C)=C[C@@H](C(=O)O1)[C@]34O)O2 | 96.5%

Excerpt of the above (series 4):
SMILES | cell number
Nc1nc2[nH]cc(CCc3ccc(C(=O)N[C@@H](CCC(=O)[O-])C(=O)[O-])cc3)c2c(=O)[nH]1.Nc1nc2[nH]cc(CCc3ccc(C(=O)N[C@@H](CCC(=O)[O-])C(=O)[O-])cc3)c2c(=O)[nH]1.O.O.O.O.O.[Na+].[Na+].[Na+].[Na+] | 87.2%
C/C=C1\NC(=O)[C@H]2CSSCC/C=C/[C@H](CC(=O)N[C@H](C(C)C)C(=O)N2)OC(=O)[C@H](C(C)C)NC1=O | 61.2%
CCC(=O)O[C@@H](O[P@](=O)(CCCCc1ccccc1)CC(=O)N1C[C@H](C2CCCCC2)C[C@H]1C(=O)[O-])C(C)C.[Na+] | 100%
COS(=O)(=O)[O-].C[N+]1(C)CCC(=C(c2ccccc2)c2ccccc2)CC1 | 97.3%
CC1(C)CCC(CN2CCN(c3ccc(C(=O)NS(=O)(=O)c4ccc(NCC5CCOCC5)c([N+](=O)[O-])c4)c(Oc4cnc5[nH]ccc5c4)c3)CC2)=C(c2ccc(Cl)cc2)C1 | 1.31%
